Assay results of several laboratories.
± gives the spread as reported.
Chain of UniProt P30874 (whole entry, looked up): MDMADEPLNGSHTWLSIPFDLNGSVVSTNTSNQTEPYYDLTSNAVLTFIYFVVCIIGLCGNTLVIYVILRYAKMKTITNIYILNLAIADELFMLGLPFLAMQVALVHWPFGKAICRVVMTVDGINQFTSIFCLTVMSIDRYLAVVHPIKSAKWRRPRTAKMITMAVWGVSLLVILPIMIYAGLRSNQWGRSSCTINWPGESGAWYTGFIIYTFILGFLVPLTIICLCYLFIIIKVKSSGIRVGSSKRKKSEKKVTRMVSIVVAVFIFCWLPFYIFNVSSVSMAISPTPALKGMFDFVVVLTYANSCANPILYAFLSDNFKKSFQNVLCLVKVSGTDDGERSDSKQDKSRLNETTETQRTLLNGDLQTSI
Chain of UniProt P43219 (whole entry, looked up): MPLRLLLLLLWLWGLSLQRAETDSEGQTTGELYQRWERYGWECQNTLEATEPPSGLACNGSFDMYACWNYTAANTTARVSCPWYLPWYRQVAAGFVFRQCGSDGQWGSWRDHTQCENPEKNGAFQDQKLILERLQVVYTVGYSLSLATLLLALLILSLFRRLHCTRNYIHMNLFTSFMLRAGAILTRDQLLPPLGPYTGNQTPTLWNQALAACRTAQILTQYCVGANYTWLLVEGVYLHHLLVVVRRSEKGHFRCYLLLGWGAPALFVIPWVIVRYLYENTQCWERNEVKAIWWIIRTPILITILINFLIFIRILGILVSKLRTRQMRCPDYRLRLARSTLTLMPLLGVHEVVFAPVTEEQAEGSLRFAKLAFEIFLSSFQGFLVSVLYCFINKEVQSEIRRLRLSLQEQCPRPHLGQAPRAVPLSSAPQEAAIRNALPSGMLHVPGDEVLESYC
Chain of UniProt Q8IXJ6 (whole entry, looked up): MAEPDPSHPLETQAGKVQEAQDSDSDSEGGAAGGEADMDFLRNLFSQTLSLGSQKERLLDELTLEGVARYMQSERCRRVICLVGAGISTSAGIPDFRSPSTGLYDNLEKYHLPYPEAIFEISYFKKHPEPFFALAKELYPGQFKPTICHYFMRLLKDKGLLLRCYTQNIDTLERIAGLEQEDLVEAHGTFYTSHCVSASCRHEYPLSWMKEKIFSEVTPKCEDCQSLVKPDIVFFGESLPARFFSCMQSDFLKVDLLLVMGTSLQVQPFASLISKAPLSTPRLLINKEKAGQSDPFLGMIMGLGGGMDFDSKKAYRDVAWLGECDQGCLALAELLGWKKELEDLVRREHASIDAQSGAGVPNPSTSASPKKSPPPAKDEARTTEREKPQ
Chain of UniProt Q9BV86 (whole entry, looked up): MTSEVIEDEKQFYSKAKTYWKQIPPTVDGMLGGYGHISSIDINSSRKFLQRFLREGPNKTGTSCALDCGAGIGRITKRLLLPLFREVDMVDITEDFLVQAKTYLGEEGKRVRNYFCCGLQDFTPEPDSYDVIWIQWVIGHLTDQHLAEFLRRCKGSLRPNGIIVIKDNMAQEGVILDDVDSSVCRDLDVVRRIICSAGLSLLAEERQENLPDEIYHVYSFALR
Chain of UniProt Q86YB8 (whole entry, looked up): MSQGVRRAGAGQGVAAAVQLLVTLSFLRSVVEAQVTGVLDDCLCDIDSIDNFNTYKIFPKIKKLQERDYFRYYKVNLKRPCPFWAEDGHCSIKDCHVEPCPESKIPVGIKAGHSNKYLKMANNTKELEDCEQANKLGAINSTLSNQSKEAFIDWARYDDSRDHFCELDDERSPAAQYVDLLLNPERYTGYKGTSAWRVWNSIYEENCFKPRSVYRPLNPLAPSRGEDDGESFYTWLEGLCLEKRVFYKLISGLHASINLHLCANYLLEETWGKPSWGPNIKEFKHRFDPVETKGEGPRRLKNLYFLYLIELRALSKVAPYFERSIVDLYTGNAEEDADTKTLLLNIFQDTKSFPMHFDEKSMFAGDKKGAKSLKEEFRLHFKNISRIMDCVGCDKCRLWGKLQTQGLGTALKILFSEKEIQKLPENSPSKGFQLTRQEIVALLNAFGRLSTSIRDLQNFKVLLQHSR
Chain of UniProt P10632 (whole entry, looked up): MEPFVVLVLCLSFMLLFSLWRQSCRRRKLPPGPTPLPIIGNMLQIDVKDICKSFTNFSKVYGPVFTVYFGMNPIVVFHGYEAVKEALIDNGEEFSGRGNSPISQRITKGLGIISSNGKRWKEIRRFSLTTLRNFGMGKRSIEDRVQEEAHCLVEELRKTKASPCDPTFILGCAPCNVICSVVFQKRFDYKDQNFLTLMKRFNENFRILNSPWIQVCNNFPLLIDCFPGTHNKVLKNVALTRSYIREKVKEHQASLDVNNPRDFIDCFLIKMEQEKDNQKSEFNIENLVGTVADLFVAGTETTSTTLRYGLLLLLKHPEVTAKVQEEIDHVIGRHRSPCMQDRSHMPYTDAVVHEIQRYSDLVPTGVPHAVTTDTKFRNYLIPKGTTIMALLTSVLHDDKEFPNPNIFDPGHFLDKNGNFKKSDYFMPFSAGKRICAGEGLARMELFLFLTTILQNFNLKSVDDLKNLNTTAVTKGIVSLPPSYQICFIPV
Chain of UniProt C7C422 (whole entry, looked up): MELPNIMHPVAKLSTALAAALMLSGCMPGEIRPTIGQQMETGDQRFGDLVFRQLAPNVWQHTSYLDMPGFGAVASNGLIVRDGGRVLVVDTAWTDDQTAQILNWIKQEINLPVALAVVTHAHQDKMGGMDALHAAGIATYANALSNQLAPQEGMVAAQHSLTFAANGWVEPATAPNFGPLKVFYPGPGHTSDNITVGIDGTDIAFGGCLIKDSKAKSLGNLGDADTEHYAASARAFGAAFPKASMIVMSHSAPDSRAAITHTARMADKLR
Chain of UniProt P28074 (whole entry, looked up): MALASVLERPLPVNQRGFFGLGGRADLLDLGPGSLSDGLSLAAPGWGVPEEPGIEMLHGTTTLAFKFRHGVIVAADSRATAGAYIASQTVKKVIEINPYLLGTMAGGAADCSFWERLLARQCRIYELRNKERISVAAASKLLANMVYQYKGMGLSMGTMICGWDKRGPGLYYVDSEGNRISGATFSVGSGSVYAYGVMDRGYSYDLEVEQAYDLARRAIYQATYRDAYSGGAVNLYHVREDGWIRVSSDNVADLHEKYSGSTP
Chain of UniProt Q923J1 (whole entry, looked up): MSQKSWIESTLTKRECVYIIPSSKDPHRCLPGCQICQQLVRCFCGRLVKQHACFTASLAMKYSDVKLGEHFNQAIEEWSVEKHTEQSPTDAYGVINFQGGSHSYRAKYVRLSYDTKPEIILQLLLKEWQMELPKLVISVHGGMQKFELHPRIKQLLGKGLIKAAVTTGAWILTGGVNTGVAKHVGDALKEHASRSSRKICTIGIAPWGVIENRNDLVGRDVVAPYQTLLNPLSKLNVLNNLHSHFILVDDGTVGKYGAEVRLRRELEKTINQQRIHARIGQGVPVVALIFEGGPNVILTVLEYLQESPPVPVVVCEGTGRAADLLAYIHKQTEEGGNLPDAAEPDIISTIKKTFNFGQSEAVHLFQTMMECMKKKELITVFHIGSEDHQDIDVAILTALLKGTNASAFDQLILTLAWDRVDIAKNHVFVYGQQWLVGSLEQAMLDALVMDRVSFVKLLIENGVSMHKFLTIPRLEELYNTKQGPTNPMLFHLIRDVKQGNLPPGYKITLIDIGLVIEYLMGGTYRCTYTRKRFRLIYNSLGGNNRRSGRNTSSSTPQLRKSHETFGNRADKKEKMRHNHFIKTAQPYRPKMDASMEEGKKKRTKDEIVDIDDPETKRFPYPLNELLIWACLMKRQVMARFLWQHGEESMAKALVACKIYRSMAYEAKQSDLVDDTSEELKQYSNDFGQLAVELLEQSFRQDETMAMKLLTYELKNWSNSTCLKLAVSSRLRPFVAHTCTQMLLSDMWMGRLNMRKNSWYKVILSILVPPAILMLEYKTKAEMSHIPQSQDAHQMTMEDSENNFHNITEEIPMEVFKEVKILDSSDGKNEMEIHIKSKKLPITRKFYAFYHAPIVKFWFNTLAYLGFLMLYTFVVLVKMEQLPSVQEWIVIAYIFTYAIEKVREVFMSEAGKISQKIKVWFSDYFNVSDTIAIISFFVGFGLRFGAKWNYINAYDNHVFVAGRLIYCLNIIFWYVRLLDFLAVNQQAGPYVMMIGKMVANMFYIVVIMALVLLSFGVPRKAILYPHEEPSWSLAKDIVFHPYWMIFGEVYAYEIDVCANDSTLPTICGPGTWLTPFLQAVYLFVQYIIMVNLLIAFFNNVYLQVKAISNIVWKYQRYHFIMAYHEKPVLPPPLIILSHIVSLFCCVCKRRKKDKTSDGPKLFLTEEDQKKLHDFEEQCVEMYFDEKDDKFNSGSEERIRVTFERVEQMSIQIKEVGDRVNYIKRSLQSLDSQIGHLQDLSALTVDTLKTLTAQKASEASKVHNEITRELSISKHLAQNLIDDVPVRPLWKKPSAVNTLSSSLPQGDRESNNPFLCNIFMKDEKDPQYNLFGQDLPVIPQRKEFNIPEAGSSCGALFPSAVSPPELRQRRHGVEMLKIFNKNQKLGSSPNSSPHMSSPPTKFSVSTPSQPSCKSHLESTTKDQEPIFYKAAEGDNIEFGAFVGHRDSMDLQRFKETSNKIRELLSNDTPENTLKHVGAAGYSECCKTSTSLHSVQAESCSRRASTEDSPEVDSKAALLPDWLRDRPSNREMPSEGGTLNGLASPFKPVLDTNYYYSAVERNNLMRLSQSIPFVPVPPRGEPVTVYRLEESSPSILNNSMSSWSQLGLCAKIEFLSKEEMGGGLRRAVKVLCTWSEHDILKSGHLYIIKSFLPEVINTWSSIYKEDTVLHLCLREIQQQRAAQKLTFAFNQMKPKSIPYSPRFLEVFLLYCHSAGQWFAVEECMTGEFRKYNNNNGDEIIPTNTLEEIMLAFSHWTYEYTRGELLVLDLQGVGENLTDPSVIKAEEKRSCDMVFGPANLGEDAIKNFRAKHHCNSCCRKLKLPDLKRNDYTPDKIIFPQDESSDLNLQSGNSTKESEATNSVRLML

Structure (SMILES) | target | assay | test system | setting | IC50
COCCn1cc(COc2cccc(Cc3cnc(NC(=O)C(C)c4ccc(CC(C)C)cc4)s3)c2)nn1 (stereo not drawn) | SIRT2 (Homo sapiens, UniProt Q8IXJ6) | enzyme activity, inhibitor, fluorescence |  |  | 6 µM
COC(=O)[C@@H](CS)N1C(=O)c2ccc(N(C)C)cc2C1=O | blaNDM-1 (Klebsiella pneumoniae, UniProt C7C422) | enzyme activity, inhibitor |  | pH 7 | 7.9 µM
NC1(Cc2ccc(Cl)cc2)CCN(c2ncnc3[nH]ccc23)CC1 | Trpm7 (Mus musculus, UniProt Q923J1) | calcium signal |  |  | 1.42 µM
N=C(NCCCCC(N)C(N)=O)NCCCSCC1OC(n2cnc3c(N)ncnc32)C(O)C1O (stereo not drawn) | N-terminal Xaa-Pro-Lys N-methyltransferase 1 (Homo sapiens, UniProt Q9BV86) | enzyme activity, inhibitor, fluorescence |  |  | > 100 µM
CC(C)(C)ONc1nc(Nc2ccnc(C(F)(F)F)c2)nc(-c2cccc(C(F)(F)F)n2)n1 | IDH2 (Homo sapiens, UniProt P48735, R172K) | enzyme activity, inhibitor |  | lysate | 0.0379 µM
C=CCc1ccc(OCc2nnc(SCC(=O)Nc3ccc(Cl)cc3Cl)o2)c(OC)c1 | TYMS (Homo sapiens, UniProt P04818) | enzyme activity, inhibitor |  |  | 3.67 µM
C=C(NC(=O)C(=C)NC(=O)c1csc(C2=NC3c4csc(n4)C4NC(=O)c5csc(n5)C(C(C)(O)C(C)O)NC(=O)C5CSC(=N5)C(=CC)NC(=O)C(C(C)O)NC(=O)c5csc(n5)C3(CC2)NC(=O)C(C)NC(=O)C(=C)NC(=O)CNC(=O)C(C(C)CC)NC2C=Cc3c(C(C)O)cc(nc3C2O)C(=O)OC4C)n1)C(N)=O (stereo not drawn) | PSMB5 (Homo sapiens, UniProt P28074) | chymotrypsin-like activity, inhibitor | purified human 20S proteasome | 37 °C, 15 min preincubation, added: Suc-Leu-Leu-Val-Tyr-AMC | 0.76 ± 0.12 µM
C[C@]12CC[C@@H]3c4ccc(O)cc4CC[C@H]3[C@@H]1[C@H](OCCOC(=O)NC1CCCCC1)CC2=O | HSD17B1 (Homo sapiens, UniProt P14061) | enzyme activity, inhibitor, radiometric |  |  | 0.38 µM
CC[C@H](C)[C@H](NC(=O)[C@H](CO)NC(=O)[C@H](Cc1ccc(O)cc1)NC(=O)[C@H](CC(=O)O)NC(=O)[C@H](CO)NC(=O)[C@@H](NC(=O)[C@H](Cc1ccccc1)NC(=O)[C@@H](NC(=O)CNC(=O)[C@@H]1CCCN1C(=O)[C@H](C)NC(=O)[C@@H](N)Cc1ccc(O)cc1)[C@@H](C)O)[C@@H](C)CC)C(=O)N[C@@H](C)C(=O)N[C@@H](CCSC)C(=O)N[C@@H](CC(=O)O)C(=O)N[C@@H](CCCCN)C(=O)N[C@H](C(=O)N[C@@H](Cc1c[nH]cn1)C(=O)N[C@@H](CCC(N)=O)C(=O)N[C@@H](CCC(N)=O)C(=O)N[C@@H](CC(=O)O)C(=O)N[C@@H](Cc1ccccc1)C(=O)N[C@H](C(=O)N[C@@H](CC(N)=O)C(=O)N[C@@H](Cc1c[nH]c2ccccc12)C(=O)N[C@@H](CC(C)C)C(=O)N[C@@H](CC(C)C)C(=O)N[C@@H](C)C(=O)N[C@@H](CCC(N)=O)C(=O)N[C@@H](CCCCN)C(=O)NCC(=O)N[C@@H](CCCCN)C(=O)N[C@@H](CCCCN)C(=O)N[C@@H](CC(N)=O)C(=O)N[C@@H](CC(=O)O)C(=O)N[C@@H](Cc1c[nH]c2ccccc12)C(=O)N[C@@H](CCCCN)C(=O)N[C@@H](Cc1c[nH]cn1)C(=O)N[C@@H](CC(N)=O)C(=O)N[C@H](C(=O)N[C@H](C(=O)N[C@@H](CCC(N)=O)C(=O)O)[C@@H](C)O)[C@@H](C)CC)C(C)C)[C@@H](C)CC | Gastric inhibitory polypeptide receptor (Rattus norvegicus, UniProt P43219) | ligand displacement in cells, radioligand |  |  | 0.0158 µM
O=C1c2oc3cc(O)c(O)cc3c2C(=O)c2oc3cc(O)c(O)cc3c21 | Cytochrome P450 2C8 (CYP2C8, Homo sapiens, UniProt P10632) | enzyme activity, inhibitor | human, liver microsomes | 1 h, pH 7.4 | 24.6 µM
N=C(N)NCCC[C@@H]1NC(=O)[C@H](Cc2c[nH]c3ccccc23)NC(=O)[C@H](CCCNC(=N)N)NC(=O)[C@H](Cc2c[nH]c3ccccc23)NC(=O)[C@H](CCCNC(=N)N)NC(=O)[C@H](Cc2c[nH]c3ccccc23)NC(=O)[C@H](CCCNC(=N)N)NC(=O)[C@H](Cc2c[nH]c3ccccc23)NC(=O)[C@H](CCCNC(=N)N)NC(=O)[C@H](Cc2c[nH]c3ccccc23)NC(=O)[C@H](CCCNC(=N)N)NC(=O)[C@H](Cc2c[nH]c3ccccc23)NC(=O)[C@H](CCCNC(=N)N)NC(=O)[C@H](Cc2c[nH]c3ccccc23)NC(=O)[C@H](CCCNC(=N)N)NC(=O)[C@H](Cc2c[nH]c3ccccc23)NC1=O | BTK (Homo sapiens, UniProt Q06187) | enzyme activity, inhibitor |  |  | < 0.25 µM
C/C=C/C(=O)Nc1ccc2nc(NCCCCCN(C)C)nc(NCCCCCCN(C)C)c2c1 | Chromobox protein homolog 2, chromodomain (Homo sapiens, UniProt Q14781) | methyl-lysine binding, TR-FRET |  |  | > 100 µM
COc1ccc(CN2C[C@H](O)[C@H](O)[C@@H]2CO)cc1 | Golgi alpha-mannosidase IIb (Drosophila melanogaster, UniProt Q9VF33) |  |  | pH 6.0, 0.5 mM CoCl2, added: 2 mM pNP-Man | 140 µM
Cn1cnnc1Sc1c2c(c(C#N)c3nc4ccccc4n13)CCCC2 | ERO1-like protein beta (ERO1B, Homo sapiens, UniProt Q86YB8) | enzyme activity, inhibitor |  |  | 7.2 µM
C[C@@H](O)[C@@H]1NC(=O)[C@H](Cc2ccccc2)NC(=O)[C@H]([C@@H](C)O)NC(=O)[C@H](CCCCN)NC(=O)[C@@H](Cc2c[nH]c3ccccc23)NC(=O)[C@H](Cc2ccccc2)NC(=O)[C@H](Cc2ccccc2)NC(=O)[C@H](CC(N)=O)NC(=O)[C@H](NC(=O)[C@@H](N)Cc2ccc(Cl)cc2)CSSC[C@@H](C(=O)N[C@@H](Cc2ccc3ccccc3c2)C(N)=O)NC1=O | SSTR2 (Homo sapiens, UniProt P30874) | ligand displacement, radioligand |  | pH 8.2, cell membranes | 0.0067 µM
